Experimental data from different studies.
Numbered parts are unrelated; each lists some results of a single study. Changes are numbered by the printed parent chain.

Block 1
Target: RING finger protein unkempt homolog, zinc fingers 1-6, SBP tag (UNK, Homo sapiens, UniProt Q9C0B0, residues 30-357)
UniProt Q9C0B0, sequence (30-357, looked up): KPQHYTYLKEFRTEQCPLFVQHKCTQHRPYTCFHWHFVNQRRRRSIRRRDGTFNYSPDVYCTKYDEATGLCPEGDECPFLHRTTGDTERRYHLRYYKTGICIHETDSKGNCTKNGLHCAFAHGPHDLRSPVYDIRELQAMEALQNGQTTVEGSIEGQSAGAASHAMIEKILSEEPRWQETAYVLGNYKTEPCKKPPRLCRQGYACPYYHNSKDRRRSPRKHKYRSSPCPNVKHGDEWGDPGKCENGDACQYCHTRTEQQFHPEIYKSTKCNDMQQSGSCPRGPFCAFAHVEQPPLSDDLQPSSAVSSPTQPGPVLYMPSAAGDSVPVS
Method: RNA Bind-n-Seq
Form: RNA
Matrix: in vitro
Tested at: 100 nM
Notes: RNA with constant flanks, vertebrate orthologous sites, ends assumed
Baseline: input RNA pool
Reading: higher = stronger binding
Constant ends, left off below: GGGAGUUCUACAGUCCGACGAUC … CAACAGAGGAUUGAGCAUCA
Sequence	bound/input enrichment
UAUUAUAUGUAGAGAAAAAUUUUCAUUGACUCUCAUUGUGGAAUUCCCUAGCAAUUUAUUUAGACUUAAUUUUUUAAAUUCAAGCUUACUGUAUUAGUCAUUUUUAGCCCAUAAUUAAAA	14.1 ratio
CCAGUUUGUAUGCACAUUAUACACAUUCCUCUCUGUUGUGUUUGCAAAAAAUAAGACAUUUUAGUUUUUUCUAAGGGUUAUUGAUUCACUUUCUCAUUUGGCUGCAUGAAAUUGCCCUUA	0.42 ratio
ACCAAGGGACACCCAGCGGGGCGAGGAGCCACCCCAGGCAGCGAAGGCGGGGCAGGAUCGCUGCAGCCCGGGCUGCACCCACUGCUCCGUGCACCCCUCUGCUGCACAACCAGCUGCAUU	0.595 ratio
CAAUUCAAUGCUGGAGGGUUCAGAACUCAAAAAGGUCCGGUCCAACUCUAGAAUUUACCAUAGAUAUUUUUUACUGGACGCCGACAUGCAGAGCCUGAGGUGGGAGCCGUCCAAGAAAGA	1.07 ratio
GCAAUGAAAAAGCAGCCUUUCUCCCAGCCCCCCUUUCACUAGGAGAUACAAACGUUACCAUAGAAGAGCAAUUAAACUCAAUAAAUUUAUCUUUUCAGGAUGAUCCAGACUCCAGCACCA	1.24 ratio

Block 2
Target: ABI1, truncated, D143A, DHFR fusion (Arabidopsis thaliana, UniProt P49597)
Method: DHFR PCA, dose-response
Matrix: yeast
Notes: Hill fit, mean, not affinity
Together with: (+)-ABA, dose series
Reading: lower = more sensitive
Parent: PYL1, truncated, DHFR fusion (Arabidopsis thaliana, UniProt Q8VZS8); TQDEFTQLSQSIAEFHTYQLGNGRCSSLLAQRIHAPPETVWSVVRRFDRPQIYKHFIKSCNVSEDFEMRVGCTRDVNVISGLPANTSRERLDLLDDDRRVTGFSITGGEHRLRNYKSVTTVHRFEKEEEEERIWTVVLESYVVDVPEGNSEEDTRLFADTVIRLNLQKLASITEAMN
Change	ABA EC50 [µM]
D96C	88.7
A13D	3.77
K168C	1.46
R49F	19.8
T120V	752
D153T	122
V76N	80
S9W	5.54
D65L	12.7
A35N	279
V142D	27.6
S104R	18.1
V76Q	683
Y53G	255
I172R	43.9
S171R	1.78

Block 3
Target: Histone acetyltransferase KAT6A, winged helix 2, GST fusion (KAT6A, Homo sapiens, UniProt Q92794, residues 85-181)
Method: protein binding microarray
Form: double-stranded DNA, one strand shown
Matrix: in vitro
Tested at: not given
Notes: 8-mer, flanks averaged, mean of 2 arrays, mostly near background
Baseline: not given
Reading: higher = stronger binding
Construct (chain): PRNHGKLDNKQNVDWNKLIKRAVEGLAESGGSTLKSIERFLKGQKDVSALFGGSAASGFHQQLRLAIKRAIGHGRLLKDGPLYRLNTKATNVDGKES
Sequence	E-score
AAATTGTA	0.00853
TACAGTCA	-0.152
AGCTTATG	-0.0422
GAGGCCCC	0.00905
ACGAAGCC	0.0303
ATACATAT	0.0863
TTAAGCAA	0.0227
CGTGGACA	-0.055
CTGTATCA	-0.0117
CAAGGAGG	-0.0342
GTTACCCA	-0.034

Block 4
Target: CCNB3, cyclin fold, Cln2 fusion (human)
Method: yeast growth competition, sequencing
Matrix: yeast
Notes: weak parent motif
Baseline: not given
Reading: higher = stronger binding
Parent: GMNC docking peptide (human); KNAKRNLSSEFAN
Change	normalised enrichment score
A3D	0.272
A12Y	0.181
F11E	0.209
N2C	0.251
N6F	-0.0953
K4A	0.356
S8Q	0.58
S9E	0.201
K4M	-0.134
A3F	0.262
S8I	0.29
E10F	0.143

Block 5
Target: TAR DNA-binding protein 43, full length, His tag (TARDBP, Homo sapiens, UniProt Q13148, residues 1-414)
Method: RNA Bind-n-Seq
Form: RNA
Matrix: in vitro
Tested at: 20 nM
Notes: 6-mer, flanks averaged, single round
Together with: 150 mM LiCl
Baseline: input library
Reading: higher = stronger binding
Sequence	6-mer enrichment (R)
UGACAC	1.08
UCUCAA	0.823
CAUUAG	0.877
GGUCUU	0.943
AGCGUU	0.935
CAUCGC	0.837
CCUUCU	0.973
GGGUGU	1.71
GGGGUC	1.16
CGUUCA	0.848
GCGGAU	1
GUGUGU	3.19
ACCCUG	0.948

Block 6
Target: RNA binding protein fox-1 homolog 2, RRM domain, GST-SBP tag (RBFOX2, Homo sapiens, UniProt O43251-10, residues 100-194)
Method: RNA Bind-n-Seq
Form: RNA
Matrix: in vitro
Tested at: 365 nM
Notes: natural RNA segment, single round, ends assumed
Baseline: no-protein control
Reading: higher = stronger binding
Constant ends, left off below: GGGAGUUCUACAGUCCGACGAUC … UGGAAUUCUCGGGUGCCAA
Target sequence (chain): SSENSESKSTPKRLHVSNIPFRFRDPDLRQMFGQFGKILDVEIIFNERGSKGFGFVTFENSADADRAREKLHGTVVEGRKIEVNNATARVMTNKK
Sequence	RBNS enrichment (R)
AUGGAUAUCGCUUUGUUUUCCUUUGAAAGUAAUUAUAUCUUAAGAACAUAGUAUCAUGAAUGGAGUAGACAGGGAGGCUGCAGAAGCCAUUUCUCUUUGUAGAUAAAAAG	0.486
CAUAGCUUCCGCCCUGCGCUGCCAGUCUCCUACCUGCAGGCCGAGCUGGCCUUCGAGGGCGAGGCCGCCUGCCGGGCCUUCCUAGAGCCCCUGGGCCUGGCCUACACGGG	0.467
GCGGAUCUUGUAUUUCGUGCCGGGAUGGGGUUGAGAUAGAGAGUAUAGUGAAGAAGAGUCAAGCGUCAGAUAUAUUCUCCCAGUUGAUCCCAAUAUCUGCCCUAAGUGAU	0.915
GGGAGUGCUCCACUCCCUAGCAGAGCAGAGGGAAGUCUCUGCCAGGUACCCACGCCACAGGCCUCAGGAUGGCUUUUUGUCUGAGGGCCUCAUUAGGCCCAGACUGCUGC	0.345
CAGCGUUUGUGGGUUGGUUCAGGUGUGGUACCUCCCACUCAGGAGUCAAUAUUUUCAAAUUUUUCUAGUUUCCACACACGAGGUCCUGCCUGGGGUUUGAGAAAGCCUGG	0.5
AAACAAGAAAACUUUGCUUCAAAGAUCUCAUGUGUGGGAACCACAGCGCCUGGUUGCCUUUCUCCUGUGUAUGUGUAAAUUCCUUAAUAAAUAUUGCAGGGAAAGACCCU	0.429
AUAGAGAAACAGCUCCUCGCCUCUUCCCAACAACGCAAAUUAUGAGCAGCUCCUUGAAGAGAUUUACCUUCAGCUUAUUUGGUAACCACUGCUAAUAACUAAAAUGUUCU	0.389
UUUUCCAGUUAGCCUAUGUAACCAAGUAUGCAUAACAUAACAGUAUUACCCUUUCACUCUUCUCACAGGACAUGUACCCAAAUAUGGUACUUAUUUAUGUAGUCACUGUG	0.454

Block 7
Target: Ras GTPase-activating protein-binding protein 1, full length (G3BP1, Homo sapiens, UniProt Q13283)
UniProt Q13283, sequence (whole entry, looked up): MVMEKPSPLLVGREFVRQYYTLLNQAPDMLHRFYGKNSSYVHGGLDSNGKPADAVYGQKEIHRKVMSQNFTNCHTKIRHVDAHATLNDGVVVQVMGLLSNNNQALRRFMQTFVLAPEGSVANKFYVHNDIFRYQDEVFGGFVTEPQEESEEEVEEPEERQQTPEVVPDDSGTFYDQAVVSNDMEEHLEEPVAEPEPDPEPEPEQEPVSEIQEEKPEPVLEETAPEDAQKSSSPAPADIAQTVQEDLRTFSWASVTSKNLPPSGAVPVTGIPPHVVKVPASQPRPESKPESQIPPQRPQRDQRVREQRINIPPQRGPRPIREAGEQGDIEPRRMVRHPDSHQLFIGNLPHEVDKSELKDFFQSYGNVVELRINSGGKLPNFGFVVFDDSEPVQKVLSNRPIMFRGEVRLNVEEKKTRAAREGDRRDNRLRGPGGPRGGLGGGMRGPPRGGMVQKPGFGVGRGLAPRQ
Method: RNA Bind-n-Seq
Form: RNA
Matrix: in vitro
Tested at: 200 nM
Notes: whole 134-nt RNA, ends assumed
Together with: 150 mM KCl
Baseline: input library
Reading: higher = stronger binding
Constant ends, left off below: GGGAGUUCUACAGUCCGACGAUC … UGGAAUUCUCGGGUGUCAAGG
Sequence	log2 enrichment
AGUCCUGUGCUACACAUCGUAUGUACCGAAUCGGGUUUUUGGGAAAAAGGGUUUGGGAAAGUAUUAUGUUACGCCGUUCGGAUCUGCACU	-0.368
UGGGAGGUGGAUUUGGUUUAUUUUUUUAGCUCAUUUCCAGGGGUGGGAAUUUUUUUUUAAUAUGUGUCAUGAAUAAAGUUGUUUUUGAAA	0.0178
CUCAAGUCCUGUGCUACACAUCGUAUGUACCGAAUCGGGGCGGGGCGGGCGGGGAAAGUAUUAUGUUACGCCGUUCGGAUCUGCACUUCC	1.39
CUGUGCUACACAUCGUAUGUACCGAAUCGGCCCCCCCGGGGCCCCCCCGGGGCCCCCCCGGGAAAGUAUUAUGUUACGCCGUUCGGAUCU	-1.84
AGUCCUGUGCUACACAUCGUAUGUACCGAAUCGGGAAAGGGUUUUUUUGGGUUUGGGAAAGUAUUAUGUUACGCCGUUCGGAUCUGCACU	-0.165
CACAGACAACACGCACCCACACAGACACAGAGGGAAGGGGUUGGGAUGGGGACAGGGUGCACAGCACGGCGGGGUAGGACCCCAGCCCCU	1.8
GUCCUGUGCUACACAUCGUAUGUACCGAAUCGGCCCCCCGGCCCCCCGGGGCCCCCCGGAAAGUAUUAUGUUACGCCGUUCGGAUCUGCA	-0.169
GUCCUGUGCUACACAUCGUAUGUACCGAAUCGGGAAAGGGAAAAAGGGUUUUUUUGGGAAAGUAUUAUGUUACGCCGUUCGGAUCUGCAC	-0.512

For quick reference, copied from above (block 4):
Change	normalised enrichment score
A3D	0.272
F11E	0.209
A3F	0.262
A12Y	0.181
E10F	0.143
